Measured values gathered from unrelated publications.
Each line is one published result; not all experiments were run side by side. ± marks the error that the study gave. In brackets after ≈: the same amount, converted by molar mass.
Organism: Klebsiella pneumoniae

Cc1ccc(S(=O)(=O)Nn2c(N)c(-c3nc4ccccc4s3)c3[nH]nc(N)c3c2=O)cc1
inhibition zone (microbial growth, well diffusion; 15000 µg/mL, 24 h): 21.3 mm

CCCCCCCCCC(=O)N[C@@H](CCN)C(=O)N[C@H](C(=O)N[C@H](C(=O)N[C@H](CC(C)C)C(=O)N[C@@H](CC(C)C)C(=O)N[C@@H](CCN)C(=O)N[C@@H](C(=O)N[C@@H](CC(C)C)C(=O)N[C@@H](CO)C(N)=O)C(C)C)[C@@H](C)O)[C@@H](C)CC
MIC (checkerboard, refers to: rifampicin; ATCC 13883; sensitization to antibiotics, with: compound at 2 µg/mL): > 0.125 µg/mL

CC1(C)S[C@@H]2[C@H](NC(=O)[C@H](N)c3ccc(O)cc3)C(=O)N2[C@H]1C(=O)O
sensitive strains (community-acquired pneumonia patients; Fine score below 70): 0%

CCCCCCCC(=O)N[C@@H](CCCN)C(=O)N[C@H](C(=O)N[C@@H](CCCN)C(=O)N[C@H](Cc1ccccc1)C(=O)N[C@@H](CC(C)C)C(=O)N[C@@H](CCCN)C(=O)N[C@@H](C(=O)N[C@@H](CC(C)C)C(=O)N[C@@H](CO)C(N)=O)C(C)C)[C@@H](C)CC
MIC (checkerboard, refers to: rifampicin; ATCC 13883; sensitization to antibiotics, with: compound at 4 µg/mL): 0.0078 to 0.0156 µg/mL

N#CC(=Cc1cn(-c2ccccc2)nc1-c1ccccc1)C1=NC(=O)CS1
MIC (microbial growth, broth dilution): 0.49 µg/mL (≈ 1.32 µM)

CCOC(=O)c1cc(C#N)c(=O)n(NS(=O)(=O)c2ccc(C)cc2)c1N
inhibition zone (microbial growth, well diffusion; 15000 µg/mL, 24 h): 35.3 mm

Ac-DNCQYVYNV-NH2 (N-acetyl, C-amide)
fold reduction in CFU (peptide, 43816, wild-type mice, peritoneal neutrophils; intraperitoneal, 1.5 mg, dosed 10 min before infection; baseline: vehicle): 3.5 ± 0.6 fold

CC[C@H]1OC(=O)[C@H](C)[C@@H](O[C@H]2C[C@@](C)(OC)[C@@H](O)[C@H](C)O2)[C@H](C)[C@@H](O[C@@H]2O[C@H](C)C[C@H](N(C)C)[C@H]2O)[C@](C)(O)C[C@@H](C)C(=O)[C@H](C)[C@@H](O)[C@]1(C)O
sensitive strains (community-acquired pneumonia patients; Fine score 70 or more): 0%

CC[C@H](C)[C@H](NC(=O)[C@@H]1CCCN1C(=O)[C@H](CCCNC(=N)N)NC(=O)[C@@H]1CCCN1C(=O)CNC(=O)[C@@H]1CCCN1C(=O)[C@H](CCCNC(=N)N)NC(=O)[C@@H]1CCCN1C(=O)[C@H](Cc1ccccc1)NC(=O)[C@@H]1CCCN1C(=O)[C@H](CC(C)C)NC(=O)[C@@H]1CCCN1C(=O)[C@H](CCCNC(=N)N)NC(=O)[C@@H]1CCCN1C(=O)[C@@H](NC(=O)[C@@H]1CCCN1C(=O)[C@H](CCCNC(=N)N)NC(=O)[C@@H]1CCCN1C(=O)CNC(=O)[C@@H]1CCCN1C(=O)[C@H](CCCNC(=N)N)NC(=O)[C@@H]1CCCN1C(=O)[C@H](Cc1ccccc1)NC(=O)[C@@H]1CCCN1C(=O)[C@H](CC(C)C)NC(=O)[C@@H]1CCCN1C(=O)[C@H](CCCNC(=N)N)NC(=O)[C@@H]1CCCN1C(=O)[C@@H](NC(=O)[C@@H]1CCCN1C(=O)[C@H](CCCNC(=N)N)NC(=O)[C@@H]1CCCN1)[C@@H](C)CC)[C@@H](C)CC)C(=O)N1CCC[C@H]1C(=O)N[C@@H](CCCNC(=N)N)C(=O)N1CCC[C@H]1C(=O)O
relative polysaccharide aggregation (SDS-PAGE; 100 µM, with: polysaccharide 300 µg/mL; baseline: bac7): 0.32

CSc1c(-c2nc3ccccc3s2)c(N)n(NS(=O)(=O)c2ccccc2)c(=O)c1C#N
inhibition zone (microbial growth, well diffusion; 15000 µg/mL, 24 h): 19 mm

CCOC(=O)c1c(N)csc1-c1cn(-c2ccccc2)nc1-c1ccc(C)cc1
MIC (microbial growth, broth dilution): 0.25 µg/mL (≈ 0.62 µM)

Polymyxin B
MIC (NCTC 13424; 5% CO2): 2 µg/mL

CC[C@H]1OC(=O)[C@H](C)[C@@H](O[C@H]2C[C@@](C)(OC)[C@@H](O)[C@H](C)O2)[C@H](C)[C@@H](O[C@@H]2O[C@H](C)C[C@H](N(C)C)[C@H]2O)[C@](C)(O)C[C@@H](C)CN(C)[C@H](C)[C@@H](O)[C@]1(C)O
sensitive strains (community-acquired pneumonia patients; Fine score below 70): 0%

A few entries again:
CC1(C)S[C@@H]2[C@H](NC(=O)[C@H](N)c3ccc(O)cc3)C(=O)N2[C@H]1C(=O)O
sensitive strains (community-acquired pneumonia patients; Fine score below 70): 0%
